Published values gathered from unrelated publications.
A part holds a random share of what one study measured. Changes are numbered by the printed parent chain.

Set 1
Target: RNA binding protein fox-1 homolog 2, RRM domain, GST-SBP tag (RBFOX2, Homo sapiens, UniProt O43251-10, residues 100-194)
Method: RNA Bind-n-Seq
Molecule type: RNA
Matrix: in vitro
Concentration: 365 nM
Notes: natural RNA segment, single round, ends assumed
Relative to: no-protein control
Reading: higher = stronger binding
Measurement: RBNS enrichment (R)
Construct (chain): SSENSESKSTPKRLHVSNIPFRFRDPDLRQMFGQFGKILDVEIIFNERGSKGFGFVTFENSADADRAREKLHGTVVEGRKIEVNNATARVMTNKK
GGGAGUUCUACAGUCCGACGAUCGCUGUCAGUUUUGAAUUCCUCCAUCUGAACUGCACUGAAGAACUAGACUAAAGCACCGGGCGGUCCAGCUGUAGCUGUUCUUCAGUGAGGGUGAGGAUCAGUGUAUUAGAUGGAAUUCUCGGGUGCCAA: 0.985
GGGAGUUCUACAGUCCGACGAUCCUGGUGUAGAGCACAAGCCUCUCCACCCUAGAGAAAUGCCUCUGUACCACGGCUACCAUGUGGAACCUUAACUUGCAGAAGGCUUGUUAACAAUUGUUUUGAGAGAGAUGUGGAAUUCUCGGGUGCCAA: 0.306
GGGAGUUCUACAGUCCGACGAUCACUUCCCAGGCAAAUAGGCCCCUUUGAGGCUCCUGAGUGCCCUCAGAUGGUCAAAACCCAGUUUUCCCUCUGGGAGCCUAAACCAGGCUGCAUCGGAGGCCAGGACCCGGUGGAAUUCUCGGGUGCCAA: 0.198
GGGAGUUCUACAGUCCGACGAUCAAACCAACACAAGUCCCUGGGGCGGGUGGAGAAGAUGGUGGAGCCCCGUGAGACGGGGCUUCUGUGUGACCCUUACUUCCUCUGCACACUGGGACCCUUGAGCCAAGGGCUGGAAUUCUCGGGUGCCAA: 0.631
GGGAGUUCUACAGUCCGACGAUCUUGAUCACAGUUUAUAAGAAAGAACAAAUCAAGAUUGGCAAUCCUUGCCGAUCUUUUAGAAAUACCUUUUCUGGAGAAAAAAAAAUCCACAUGAAGUGCAAUAAGCUUAUUGGAAUUCUCGGGUGCCAA: 0.403
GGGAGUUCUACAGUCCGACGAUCUACCUCUGGGGACAGCUGGCAUGCCUUUGGCUUUGUGUAGAGUAGGGUGGUGAGACCCUUCCUGGCUCCCCUGCUUUGUGAGUUAGGCGUGCUGGGGCACCCUCCUGGCCUGGAAUUCUCGGGUGCCAA: 1.42
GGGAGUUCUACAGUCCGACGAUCACUCUCAAGAUCCAUUAGCUUUUAAAAUUUCUGCCUCUGAGUCUGAAGCCCAGGUGGACAGCCAUUUUCCAUCACCCCUUUCCAGCUGUAAUCUUUCAUCCCCCUCCCCCUGGAAUUCUCGGGUGCCAA: 1.24
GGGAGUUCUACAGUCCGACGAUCAUGGCGGUCUGCUGGUGCCCUCGAAGGGGCAUCCUUCCUGGUCUUCGCUGACCCAGAGGCGCUGUGCCUGCAUAUCAUCCACCACCACCCUAGCCCAGCCUUCCCACUGCUGGAAUUCUCGGGUGCCAA: 0.552
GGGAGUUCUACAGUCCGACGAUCAAUGAGAGGAUAAUGAAUCUGAAUCAUAGCAGGAAUUUGCAAUAUUAAUUAUGGUUAGCUAUUUUUCUCUCAUUGAUUUUUGUGCCACUUGAAUGGAACAGAAGCAAGCCUGGAAUUCUCGGGUGCCAA: 0.785
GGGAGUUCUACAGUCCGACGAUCAGCUCUAACUCUGAGAGCCUUUUGAGGAUGGGUGCUAGAGGGCCCGUGCCCCUAAAACAGCAGGCAGCUUCCCCCCCACCCUGGUGUGCACACCAGGAGUGUUUGCACAGUGGAAUUCUCGGGUGCCAA: 0.274
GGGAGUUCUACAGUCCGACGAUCGCUGCACGAGCUCGGGCUGGACGAGCCGCUGAUGACACCACUGCGGGAGCGCUUCCUGCAGCCGCUGAUGGCCCUGCUGUACCCUGACUGUGGCGGGGGCCGGCUCGACAUGGAAUUCUCGGGUGCCAA: 1.32
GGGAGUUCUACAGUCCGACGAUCAGGUAGUUAAGUGUCACACAAGGUGUUGUUGCAAUGGCAUGACGGUGACCUGUUGACGUAACUAAGCCUUACAGCAAGGCAUGUGCCGCACGUGCUCCGUGGUACUUAGAUGGAAUUCUCGGGUGCCAA: 4.28

Set 2
Target: Max dimerization protein 1, bHLH-zipper, MAX partner unstated (MXD1, Homo sapiens, UniProt Q05195, residues 56-136)
Method: protein-binding microarray
Molecule type: double-stranded DNA, one strand shown
Matrix: in vitro
Concentration: not given
Notes: k-mer, scored over probes, only values ≥0.25
Reading: higher = stronger binding
Measurement: E-score
Target sequence (chain): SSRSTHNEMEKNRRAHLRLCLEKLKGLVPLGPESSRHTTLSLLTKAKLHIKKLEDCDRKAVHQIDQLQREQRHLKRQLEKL
CTCCTCCA: 0.263
ATCATGTG: 0.444
CCCCACCC: 0.291
CCCACGGC: 0.251
ACATCGTG: 0.308
CCCGTGCG: 0.281
AGGCGTGG: 0.342
AACATATG: 0.291
GGGGCACA: 0.284
CATGTCCG: 0.335
CCCTCCCC: 0.327
AGCATGAG: 0.378
CACGGGAC: 0.263
CCATGCCG: 0.368
ACATGCAT: 0.375
GCCCCACC: 0.283
CACACATG: 0.412

Set 3
Target: Sal-like protein 4, full length isoform A (SALL4, Homo sapiens, UniProt Q9UJQ4, residues 1-1053)
Chain of UniProt Q9UJQ4 (whole entry, looked up): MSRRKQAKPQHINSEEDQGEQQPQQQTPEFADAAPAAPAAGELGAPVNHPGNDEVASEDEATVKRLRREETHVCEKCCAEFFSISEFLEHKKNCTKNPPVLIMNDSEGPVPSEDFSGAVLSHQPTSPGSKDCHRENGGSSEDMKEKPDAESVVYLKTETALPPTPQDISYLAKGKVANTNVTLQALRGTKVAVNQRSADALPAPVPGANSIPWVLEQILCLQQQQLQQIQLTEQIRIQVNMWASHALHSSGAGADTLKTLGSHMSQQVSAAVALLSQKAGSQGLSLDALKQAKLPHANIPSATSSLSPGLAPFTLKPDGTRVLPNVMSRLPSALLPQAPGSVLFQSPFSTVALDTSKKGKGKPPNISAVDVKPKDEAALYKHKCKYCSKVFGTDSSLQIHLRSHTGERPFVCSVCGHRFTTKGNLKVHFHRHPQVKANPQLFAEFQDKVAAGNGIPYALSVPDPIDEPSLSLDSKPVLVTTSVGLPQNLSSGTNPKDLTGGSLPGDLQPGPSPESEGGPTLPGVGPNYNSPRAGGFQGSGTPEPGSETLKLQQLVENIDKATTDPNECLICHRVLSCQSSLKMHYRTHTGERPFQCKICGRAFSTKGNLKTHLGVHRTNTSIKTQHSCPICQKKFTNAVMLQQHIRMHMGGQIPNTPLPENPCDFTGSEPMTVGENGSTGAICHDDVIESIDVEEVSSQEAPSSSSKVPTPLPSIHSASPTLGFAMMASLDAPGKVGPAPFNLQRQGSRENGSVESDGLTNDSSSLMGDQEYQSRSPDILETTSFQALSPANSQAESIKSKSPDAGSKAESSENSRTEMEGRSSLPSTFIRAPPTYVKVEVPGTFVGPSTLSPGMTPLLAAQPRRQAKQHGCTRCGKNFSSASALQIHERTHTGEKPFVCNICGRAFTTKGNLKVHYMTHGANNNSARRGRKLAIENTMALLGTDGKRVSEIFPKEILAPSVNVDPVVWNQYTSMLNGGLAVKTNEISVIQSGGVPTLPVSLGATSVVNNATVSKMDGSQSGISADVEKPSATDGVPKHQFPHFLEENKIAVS
Method: universal PBM
Molecule type: double-stranded DNA, one strand shown
Matrix: in vitro
Concentration: 600 nM
Notes: 8-mer, flanks averaged, mean of replicates
Reading: higher = stronger binding
Measurement: E-score
GTTCGCTA: 0.0489
GAGTCGGA: -0.0776
GGAGCTGA: -0.249
CCGTGTAG: -0.124
TACGTGCA: -0.0568
GATGAGAA: 0.106
CATACCGA: 0.0989
CAGCCACA: -0.081
CTGGGTCA: -0.186
AGGGGTAC: -0.225
ACGTCTGA: 0.0344
CTTAAGCA: 0.0599
ACCACATC: -0.0694
ATGGTTTG: -0.0563
ACCGTCAA: 0.0285
CACCAAAA: 0.175
CAAAGACC: 0.0769
AATGGGAT: 0.0577
ACACCTAA: 0.121
GCGCTGCA: -0.16
GGGGGTTA: -0.172
AGTATCAG: -0.0192

Set 4
Target: CREB3L4, bZIP domain (human)
Method: DHFR protein complementation
Matrix: yeast
Notes: single substitutions, most at no-binding floor
Relative to: wild-type JUN-FOS pair
Reading: higher = stronger binding
Measurement: binding fitness
Parent: JUN, bZIP domain (human); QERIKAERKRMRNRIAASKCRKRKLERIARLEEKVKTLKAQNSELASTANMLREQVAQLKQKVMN; partner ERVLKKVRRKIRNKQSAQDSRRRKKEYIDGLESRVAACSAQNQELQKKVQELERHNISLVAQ
L45E: -1.56 natural log
K39E: -1.58 natural log
M51I: -1.13 natural log
V35N: -1.48 natural log
V35H: -1.42 natural log
A46E: -1.24 natural log
E54Q: -1.55 natural log
K34M: -1.53 natural log
V56N: -1.46 natural log
A29P: -1.4 natural log
Q55S: -1.45 natural log
E44W: -1.48 natural log
E32Q: -1.19 natural log
L38V: -1.52 natural log
K39V: -1.27 natural log
Q55G: -1.48 natural log
K36E: -1.31 natural log
A49H: -1.44 natural log
E44S: -1.17 natural log
K39Y: -1.48 natural log
S47L: -1.51 natural log
S47G: -1.49 natural log

Set 5
Target: CCND1, cyclin fold, Cln2 fusion (human)
Method: yeast growth competition, sequencing
Matrix: yeast
Notes: weak parent motif
Relative to: not given
Reading: higher = stronger binding
Measurement: normalised enrichment score
Parent: RB1 docking peptide (human); PKPLKKLRFDIEG
P3L: 0.37
G13I: -0.23
P3A: -0.0278
P1T: 0.0144
R8C: -0.245
K5S: 0.381
I11K: 0.0367
I11A: 0.401
R8S: 0.143
F9H: -0.238
K5Y: 0.694
P3C: 0.935
L7Q: -0.791
K5E: 0.46
L7E: -0.247
L7A: 0.62
P3F: -0.0951
G13R: 0.708
P1A: 0.184
I11C: 0.144
I11D: -0.447
K6N: -0.11
R8Q: -0.141
R8Y: 0.867
I11E: 0.474

Set 6
Target: Fragile X messenger ribonucleoprotein 1, C-terminal low-complexity region (Fmr1, Mus musculus, UniProt P35922)
Method: RNA Bind-n-Seq
Molecule type: RNA
Matrix: in vitro
Concentration: 200 nM
Notes: whole 134-nt RNA, ends assumed
With: 150 mM KCl
Relative to: input library
Reading: higher = stronger binding
Measurement: log2 enrichment
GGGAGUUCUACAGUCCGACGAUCUAUUAAUUUGAUAUAUUUAUUAUGAUUUGUAGAGGACGUCGGUGAUGAAGGAGAAGAAGAAAAAGAAUUCAUUUCCUAUAACAUCAACAUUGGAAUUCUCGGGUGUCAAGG: -2.03
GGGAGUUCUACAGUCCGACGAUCCUCAAGUCCUGUGCUACACAUCGUAUGUACCGAAUCGGUGGAAAAAAAGGUGGAAAGUAUUAUGUUACGCCGUUCGGAUCUGCACUUCCAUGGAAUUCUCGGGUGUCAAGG: -0.129
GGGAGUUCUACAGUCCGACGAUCAGUCCUGUGCUACACAUCGUAUGUACCGAAUCGGGGUUUUGGUUUUGGGGUUUUGGGAAAGUAUUAUGUUACGCCGUUCGGAUCUGCACUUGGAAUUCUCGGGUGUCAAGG: 0.267
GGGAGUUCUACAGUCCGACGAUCUGGGAGGUGGAUUUUGUUUAUUUUUUUAGCUCAUUUCCAGGGGUGGGAAUUUUUUUCUAAUAUGUGUCAUGAAUAAAGUUGUUUUUGAAAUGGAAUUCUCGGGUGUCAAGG: 0.332
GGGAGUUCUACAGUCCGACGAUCUCAAGUCCUGUGCUACACAUCGUAUGUACCGAAUCGGAGGUUUGGAAAAAAAGGAAAGUAUUAUGUUACGCCGUUCGGAUCUGCACUUCCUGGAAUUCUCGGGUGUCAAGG: -0.921
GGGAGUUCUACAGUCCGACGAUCAGUCCUGUGCUACACAUCGUAUGUACCGAAUCGGCCCCGGGCCCCGGGGCCCCGGGGAAAGUAUUAUGUUACGCCGUUCGGAUCUGCACUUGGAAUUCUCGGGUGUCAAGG: -0.916
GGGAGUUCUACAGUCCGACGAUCUGGCCCUGGUGGCAUGCGGGGAGGAAGAGGUGGCCUCAUGGAUCGUGGUGGUCCCGGUGGAAUGUUCAGAGGAGGCCGUGGUGGAGACAGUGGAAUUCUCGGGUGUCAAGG: -0.116
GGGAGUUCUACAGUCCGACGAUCUGGAAGUGGCGCUGGCGCCUGAAGAGUUGGAGCUGGAUCCUAUGGCCAUGACCCAGAAGUAUGAGGAGCAUGUGCGGGAGCAGCAGGCUCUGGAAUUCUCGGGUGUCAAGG: 0.396
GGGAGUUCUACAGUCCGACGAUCGAAGGAAGUAAAAACAAAUGGAAAUGCUUCGGAUAGUGGCAGGGGUGGGGGUUGCUAAGGAAAGGGUGGGAUGGGAGUGGGUAAAGAGUUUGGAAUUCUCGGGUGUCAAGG: 0.159
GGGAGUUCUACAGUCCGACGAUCUCAAGUCCUGUGCUACACAUCGUAUGUACCGAAUCGGGUUGGGUUGGGUUGGGGAAAGUAUUAUGUUACGCCGUUCGGAUCUGCACUUCCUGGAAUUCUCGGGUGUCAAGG: 1.43
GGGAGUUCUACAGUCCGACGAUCUCCUGUGCUACACAUCGUAUGUACCGAAUCGGUUUUUUGGGUUUUUUGGGUUUUUUGGGGAAAGUAUUAUGUUACGCCGUUCGGAUCUGCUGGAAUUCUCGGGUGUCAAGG: -0.131
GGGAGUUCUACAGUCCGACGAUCUGGCCCUGGUGGCAUGCGGGGAGGAAGAGGUGGCCUCAUGGAUCGUGGUGGUCCCGGUGGACUGUUCAGAGGUGGCCGUGGUGGAGACAGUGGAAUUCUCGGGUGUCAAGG: 0.103
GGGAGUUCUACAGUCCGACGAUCUCCUCAAGUCCUGUGCUACACAUCGUAUGUACCGAAUCGGGCGGGCGGCGGGAAAGUAUUAUGUUACGCCGUUCGGAUCUGCACUUCCAGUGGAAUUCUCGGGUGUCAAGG: 0.338
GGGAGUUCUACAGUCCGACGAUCUGGGAGGUGGAUUUUGUUUAUUUUUUUAGCUCAUUUCCAGGGGUGGGAAUUUUUUUUUAAUAUGUGUCAUGAAUAAAGUUCUUUUUGAAAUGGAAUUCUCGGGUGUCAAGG: 0.253

Other studies, line by line
PhoQ, residues 284 288 289 292 302 303 TYGVAM
fold induction (PhoP, residues 12 14 15 18 19 QYFSL (Escherichia coli, UniProt P23836); Sort-seq, item: YFP reporter; E. coli; PhoQ-PhoP variant library, with: 10 µM Mg2+; relative to: high Mg2+ state, higher = stronger signaling): 12.2

Repeated from above (set 5):
P3A: -0.0278
P1T: 0.0144
R8C: -0.245
K5S: 0.381
I11K: 0.0367
I11A: 0.401
R8S: 0.143
F9H: -0.238
K5Y: 0.694
P3C: 0.935
L7Q: -0.791
K5E: 0.46
L7E: -0.247
L7A: 0.62
P3F: -0.0951
G13R: 0.708
P1A: 0.184
I11C: 0.144
